Measured values gathered from unrelated publications.
Lines come from different studies, so protocols differ. ± marks the error that the study gave.
Sequence of UniProt P11712 (whole entry, looked up): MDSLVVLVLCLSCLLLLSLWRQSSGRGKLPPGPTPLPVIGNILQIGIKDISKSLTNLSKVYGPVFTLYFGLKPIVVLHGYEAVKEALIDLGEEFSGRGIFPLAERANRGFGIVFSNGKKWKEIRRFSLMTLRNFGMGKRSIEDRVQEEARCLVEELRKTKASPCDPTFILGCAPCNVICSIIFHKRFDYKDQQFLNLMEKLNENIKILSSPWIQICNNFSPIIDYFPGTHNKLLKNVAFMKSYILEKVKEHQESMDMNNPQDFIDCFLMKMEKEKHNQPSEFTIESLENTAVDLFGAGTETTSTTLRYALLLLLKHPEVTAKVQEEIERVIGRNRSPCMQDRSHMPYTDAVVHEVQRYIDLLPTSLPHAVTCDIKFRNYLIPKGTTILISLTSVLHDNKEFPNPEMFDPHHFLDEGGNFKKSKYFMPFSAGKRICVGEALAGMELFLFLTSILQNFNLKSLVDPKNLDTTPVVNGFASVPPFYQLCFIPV

SMILES	tested on	test	system	conditions	scale	endpoint	value
O=C([O-])CN1CCN(CC(=O)[O-])CCN(CC(=O)NCCc2ccc3c(c2)C2C=CCC2C(c2cc4c(cc2Br)OCO4)N3)CCN(CC(=O)[O-])CC1.[111In+3] (stereo not drawn)	Hec50 tumour model		host not given, bone	1 h, tumour-bearing		tracer uptake	0.85 %ID/g
N=C(N)NCCC[C@@H]1NC(=O)[C@H](Cc2c[nH]c3ccccc23)NC(=O)[C@@H](CC2CCCCC2)NC(=O)[C@@H]2CCCN2C(=O)[C@@H](NC(=O)CCc2ccccc2)CCCNC1=O			C57BL/6J mice, brain	intraperitoneal, 1 mg/kg		Tmax	19.8 min
[64Cu+2].c1cnc(CNCc2ccc(CN3CCCN4CCNCCCN(CC4)CC3)cc2)nc1	CXCR4		NOD/SCID mouse, U87 and U87-stb-CXCR4 xenografts, bladder	iv, 30 min, ex vivo		tissue uptake	3.47 ± 0.62 %ID/g
O=C(O)CCC(NP(=O)(O)OCCC[C@@H](NC(=O)CC[C@H](NC(=O)CCCCCNC(=O)c1ccc([18F])cc1)C(=O)O)C(=O)O)C(=O)O (stereo partly drawn)	CWR22Rv1 tumour model		host not given, tumour	1 h, tumour-bearing		tracer uptake	2.35 %ID/g
CO.COc1ccc2c(c1)c(CC(=O)[O-])c(C)n2C(=O)c1ccc(Cl)cc1.COc1ccc2c(c1)c(CC(=O)[O-])c(C)n2C(=O)c1ccc(Cl)cc1.O.[Co+2].c1ccc(Nc2ccccn2)nc1	calf thymus DNA	cyclic voltammetry	DMSO/buffer	Co(II)/Co(I) couple, with DNA		anodic peak potential	-489 mV
C=CC(=O)Nc1cc(Nc2nccc(-c3cn(C)c4ccccc34)n2)c(OCC(F)(F)F)nc1N(C)CCN(C)C	Cytochrome P450 2C9 (CYP2C9, Homo sapiens, UniProt P11712)	enzyme activity, inhibitor	human, liver microsomes	33.3 µM		activity vs control	99.9%
Cn1c(=O)oc2ccc(-c3ccc(CC(C#N)NC(=O)C4CNCCCO4)c(F)c3)cc21 (stereo not drawn)			human	oral, 10 mg once daily, TEAE, multiple ascending dose		skin exfoliation incidence	0%
[64Cu+2].c1ccc(CNCc2ccc(CN3CCCN4CCNCCCN(CC4)CC3)cc2)nc1	CXCR4 (Homo sapiens, UniProt P61073)		NOD/SCID mouse, U87-stb-CXCR4 tumour	dose not given, 90 to 240 min	reference: maximum uptake	retained radioactivity	~100%
CC(=O)N[C@H](C(=O)N[C@H](C(=O)N[C@@H](CCCNC(=N)N)C(=O)N1Cc2ccccc2C[C@H]1C(=O)N[C@@H](Cc1ccccc1)C(N)=O)C1CCCCC1)C(C)C	human PBMC	Bio-Plex multiplex, item: PDGF-bb		500 µg/mL, 24 h		cytokine level	1250 ± 710 pg/mL

Excerpt of the above:
SMILES	tested on	test	system	conditions	scale	endpoint	value
N=C(N)NCCC[C@@H]1NC(=O)[C@H](Cc2c[nH]c3ccccc23)NC(=O)[C@@H](CC2CCCCC2)NC(=O)[C@@H]2CCCN2C(=O)[C@@H](NC(=O)CCc2ccccc2)CCCNC1=O			C57BL/6J mice, brain	intraperitoneal, 1 mg/kg		Tmax	19.8 min
